Assay results of several laboratories.
Protocols differ between the studies behind these lines. “And” joins repeats or separate records; there may be more than shown. Numbers after ± are the reported error.

| SMILES | cell line | test | test system | setting | endpoint | result |
| --- | --- | --- | --- | --- | --- | --- |
| O=S(=O)(NCc1ccncc1)c1ccc(C2CCCCC2)cc1 | human bone marrow cells | granulocyte-macrophage colony formation | – | 14 d | EC50 | > 1 µM |
| COc1ccc(Cn2cc(CO[C@@H]3O[C@H]4[C@H](OC[C@H]4O)[C@H]3N=[N+]=[N-])nn2)cc1 | CAL-51 | cytotoxicity, CellTiter-Glo | – | up to 30 µM, 72 h | viability | not toxic |
| O=c1c2sccc2n(CC2COc3ccccc3O2)c(=O)n1O (stereo not shown) | MDCK | – | Caco-2 | 10 µM | Papp A→B | 44 nm/s |
| COc1cc(-c2cncc(-c3ccc(C4CCN(C)CC4)cc3)c2C)cc(OC)c1OC | Caco-2 (C2BBe1) monolayers | – | – | 5 µM, 120 min, pH 7.4 | Papp A to B | 97 nm/s |
| CN1CCCNC(=O)c2cccc(c2)C(=O)NCCCN(C)CCCNc2cccc3c2C(=O)c2cccc(c2C3=O)NCCC1 | Ca9-22 | cell growth or viability, CCK-8 | – | 15 nM, 48 h | viability | 90.9% |
| O=c1[nH]cccc1[C@H](CO)Nc1nc(N2C[C@@H]3C[C@H]2CO3)c2cc(-c3ccccc3)sc2n1 | RRCK (MDCK) | – | – | – | Papp | 125 ± 5 nm/s |
| COc1ccc(Cn2c(=O)n(O)c(=O)c3ccccc32)cc1 | MDCK | – | Caco-2 | 10 µM | efflux ratio | 0.084 |
| COc1cc(N2CCN(C(=O)C3CCCN3)CC2)ccc1Nc1ncc(Cl)c(Nc2ccccc2P(C)(C)=O)n1 (stereo not shown) | NCI-H3122 | cell growth or viability, CCK-8 | – | 50 nM, 48 h | viability | 36% and 41% |
| N=C(N)NCCC[C@@H]1NC(=O)[C@H](CCCNC(=N)N)NC(=O)[C@@H](C(c2ccccc2)c2ccccc2)NC(=O)[C@H](Cc2c[nH]c3ccccc23)NC(=O)[C@@H](C(c2ccccc2)c2ccccc2)NC(=O)[C@@H](CCCNC(=N)N)NC(=O)[C@@H](CCCNC(=N)N)NC1=O | HEKa | cell growth or viability, MTS | – | 200 µg/mL, 24 h | viability | 64 to 69% |
| CCN(CC)CC1=C/C(=N/c2ccnc3cc(Cl)ccc23)C=CC1=O | human primary hepatocytes pooled | cytotoxicity, resazurin reduction | – | 2 h, without dicoumarol | IC50 | 27 µM |
| CC[C@H](C)C(=O)O[C@H]1C[C@@H](C)C=C2C=C[C@H](C)[C@H](CC[C@@H]3CC=CC(=O)O3)[C@H]21 | T84 | MTT | – | 100 µM, 24 h | viability reduction | ~50% |
| O=c1c2ccccc2n(CC2CC2)c(=O)n1O | MDCK | – | Caco-2 | 10 µM | Papp B→A | 73 nm/s |
| N#Cc1ccc(Nc2nc(N)cc(Oc3ccc(-c4cccc(F)c4)cc3F)n2)cc1 | MT4 uninfected | – | – | – | CC50 | 13.9 ± 2.7 µM |
| N#Cc1c(N)nc2c(c1-c1ccc(CO)o1)Cc1cc(O)ccc1-2 | Raji | cytotoxicity, CellTiter-Glo | – | 96 h | IC50 | > 100 µM |
| N=C(N)NCCC[C@@H]1NC(=O)[C@H](CCCNC(=N)N)NC(=O)[C@@H](Cc2ccc3ccccc3c2)NC(=O)[C@H](Cc2c[nH]c3ccccc23)NC(=O)[C@@H](Cc2ccc3ccccc3c2)NC(=O)[C@@H](CCCNC(=N)N)NC(=O)[C@@H](CCCNC(=N)N)NC1=O | HEKa | cell growth or viability, MTS | – | 200 µg/mL, 24 h | viability | 47 to 50% |
| C=C1CN(C(=N)N)CC2Nc3c(F)cc(Br)cc3C12CCNS(=O)(=O)c1ccc(Cl)cc1.O=C(O)C(F)(F)F (stereo not shown) | MDCK | permeability | – | – | Papp | 21.1 ± 3.53 nm/s |
